Assay results gathered from unrelated publications.
Compare with care: the assays were run in different laboratories. Values joined by “and” are separate records of one study, mostly repeats; a detail may differ. ± gives the spread as reported.
Chain of UniProt P51617 (whole entry, looked up): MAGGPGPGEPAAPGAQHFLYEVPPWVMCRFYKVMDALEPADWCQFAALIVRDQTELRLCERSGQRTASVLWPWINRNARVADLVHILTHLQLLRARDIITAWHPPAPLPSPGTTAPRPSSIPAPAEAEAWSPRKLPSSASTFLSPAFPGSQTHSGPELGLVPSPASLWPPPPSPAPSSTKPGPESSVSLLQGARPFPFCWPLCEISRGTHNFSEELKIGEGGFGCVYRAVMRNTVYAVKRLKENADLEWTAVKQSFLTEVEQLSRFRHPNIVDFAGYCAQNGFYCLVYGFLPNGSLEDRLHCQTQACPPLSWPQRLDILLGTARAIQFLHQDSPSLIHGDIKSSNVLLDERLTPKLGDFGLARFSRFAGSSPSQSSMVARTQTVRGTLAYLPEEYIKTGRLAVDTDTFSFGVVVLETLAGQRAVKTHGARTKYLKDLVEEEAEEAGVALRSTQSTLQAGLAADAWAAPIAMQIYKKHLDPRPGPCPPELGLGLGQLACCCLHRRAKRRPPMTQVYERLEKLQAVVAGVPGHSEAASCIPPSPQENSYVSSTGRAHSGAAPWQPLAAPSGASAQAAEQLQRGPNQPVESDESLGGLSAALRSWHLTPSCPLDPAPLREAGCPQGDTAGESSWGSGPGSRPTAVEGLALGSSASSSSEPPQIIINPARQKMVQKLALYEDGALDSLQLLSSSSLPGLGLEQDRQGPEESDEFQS

| Compound | tested on | test | test system | conditions | how to read | endpoint | result |
| --- | --- | --- | --- | --- | --- | --- | --- |
| COc1ccc(NC(=O)c2ccc3[nH]c(-c4ccc(N(C)C)cc4)nc3c2)cn1 |  |  | CT26, BALB/c mice, subcutaneous syngeneic graft | dose not given, day 7 |  | tumour volume | 212 mm3 and 117 mm3 and 226 mm3 and 172 mm3 and 141 mm3 |
| COc1cc(O)ccc1CCC(c1ccc(O)cc1)c1cc2c(c(C)c1O)OC(c1ccc(O)cc1)CC2 (mixture of isomers) |  | refers to: PGD2 | human whole blood | 3 µM, with: Escherichia coli |  | amount | 126 ± 55 pg/mL blood |
| C=CC(=O)Nc1cccc(Cn2ncc3cnc(Nc4cnn(CCOC)c4)nc32)c1 | LATS2 human | binding, KINOMEscan |  | 100 nM | lower = stronger binding | percent of control | 83% |
| COC1CN([C@H]2CC[C@H]([C@@]3(C)Oc4c(Cl)cc(C(=O)NCc5c(SC)cc(C)[nH]c5=O)c(C)c4O3)CC2)C1 |  | RNA-seq, refers to: PLVAP | human, whole blood | dose not given, 24 h | reference: pretreatment baseline | log2 fold change | 5.03 |
| CC(=O)[O-].O.O.O.O.[Co+2].[O-]c1ccc(Br)cc1C=NCCN1CCOCC1 |  | superoxide scavenging |  | 80 µM |  | inhibition | 13% |
| COC1OC(C)C(OS(=O)(=O)O)C(OC2OC(C)C(OS(=O)(=O)O)C(OC3OC(C)C(OS(=O)(=O)O)C(OC4OC(C)C(OS(=O)(=O)O)C(OC5OC(C)C(OS(=O)(=O)O)C(OS(=O)(=O)O)C5OS(=O)(=O)O)C4OS(=O)(=O)O)C3OS(=O)(=O)O)C2OS(=O)(=O)O)C1OS(=O)(=O)O (stereo not shown) |  |  | human plasma | 32 µg/mL |  | activated partial thromboplastin time | 61.6 s and 61.3 s and 62.9 s |
| O=C(N/N=C/c1cc[n+](Cc2ccccc2)c2ccccc12)c1cncc(C(=O)N/N=C/c2cc[n+](Cc3ccccc3)c3ccccc23)n1 | 22CTA telomeric G4-DNA antiparallel | FRET melting |  | 1 µM, K10 buffer, DNA 0.2 µM, with: ds26 10 µM |  | ΔTm | 16 ± 0.2 °C |
| Cc1nn(-c2cccc(N)c2)c(=O)c2cnc(Nc3ccc(N4CCNCC4)cc3)nc12 | Interleukin-1 receptor-associated kinase 1 (IRAK1, Homo sapiens, UniProt P51617) | enzyme activity, inhibitor |  |  |  | IC50 | > 10 µM |
| Nc1ncc(-c2cc(-c3cnn(CC(F)(F)F)c3)ncc2F)nc1C(=O)NC1CNCC(F)C1 (stereo not shown) | PKN1 | KINOMEscan |  | 1 µM | reference: DMSO control | remaining binding | 100% |
| COC1OC(C)C(OS(=O)(=O)O)C(OC2OC(C)C(OS(=O)(=O)O)C(OC3OC(C)C(OS(=O)(=O)O)C(OC4OC(C)C(OS(=O)(=O)O)C(OC5OC(C)C(OS(=O)(=O)O)C(OC6OC(C)C(OS(=O)(=O)O)C(OC7OC(C)C(OS(=O)(=O)O)C(OS(=O)(=O)O)C7OS(=O)(=O)O)C6OS(=O)(=O)O)C5OS(=O)(=O)O)C4OS(=O)(=O)O)C3OS(=O)(=O)O)C2OS(=O)(=O)O)C1OS(=O)(=O)O (stereo not shown) |  |  | human plasma | 32 µg/mL |  | activated partial thromboplastin time | 84.4 s and 83.6 s and 84.7 s |
| Nc1nc2cc(CC[C@H]3C[C@@H](n4ccc5c(N)ncnc54)[C@H](O)[C@@H]3O)ccc2cc1Br |  |  | NCI-H441 xenograft, mouse | 3.0 mg/kg/day, day 38 |  | tumour volume | 128 ± 20 mm3 |
| COC1OC(C)C(OS(=O)(=O)O)C(OC2OC(C)C(OS(=O)(=O)O)C(OC3OC(C)C(OS(=O)(=O)O)C(OC4OC(C)C(OS(=O)(=O)O)C(OC5OC(C)C(OS(=O)(=O)O)C(OC6OC(C)C(OS(=O)(=O)O)C(OC7OC(C)C(OS(=O)(=O)O)C(OC8OC(C)C(OS(=O)(=O)O)C(OS(=O)(=O)O)C8O)C7O)C6O)C5O)C4O)C3O)C2O)C1O (stereo not shown) |  |  | human plasma | 128 µg/mL |  | activated partial thromboplastin time | 39 ± 1 s |
| COCC1CN(C2CCN(c3cc(OC)c(Nc4ncc(Br)c(Nc5ccc6c(c5P(C)(C)=O)OCCO6)n4)cc3C)CC2)C1 |  | RECIST 1.1 | advanced EGFR-mutant NSCLC patients | 10 mg once daily |  | disease control rate | 0% |

Excerpt of the above:
| Compound | tested on | test | test system | conditions | how to read | endpoint | result |
| --- | --- | --- | --- | --- | --- | --- | --- |
| COc1cc(O)ccc1CCC(c1ccc(O)cc1)c1cc2c(c(C)c1O)OC(c1ccc(O)cc1)CC2 (mixture of isomers) |  | refers to: PGD2 | human whole blood | 3 µM, with: Escherichia coli |  | amount | 126 ± 55 pg/mL blood |
| C=CC(=O)Nc1cccc(Cn2ncc3cnc(Nc4cnn(CCOC)c4)nc32)c1 | LATS2 human | binding, KINOMEscan |  | 100 nM | lower = stronger binding | percent of control | 83% |
